Published values from different studies.
Values joined by “and” are separate records of one study, mostly repeats; a detail may differ. ± gives the spread as reported.
sdiA: Regulatory protein SdiA (sdiA, Escherichia coli, UniProt P07026)
Chain of UniProt P07026 (whole entry, looked up): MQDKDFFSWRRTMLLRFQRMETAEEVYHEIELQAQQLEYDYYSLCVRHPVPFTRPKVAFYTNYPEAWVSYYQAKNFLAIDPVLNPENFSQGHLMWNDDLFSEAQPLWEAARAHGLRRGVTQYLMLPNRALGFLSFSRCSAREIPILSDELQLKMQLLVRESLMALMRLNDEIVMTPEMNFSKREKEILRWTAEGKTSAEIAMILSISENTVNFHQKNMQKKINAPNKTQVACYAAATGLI
lasR: Transcriptional activator protein LasR (lasR, Pseudomonas aeruginosa, UniProt P25084)
Uncharacterized hydrolase SAUSA300_2518: Uncharacterized hydrolase SAUSA300_2518 (Staphylococcus aureus, UniProt Q2FDS6)
Oprm1: Mu-type opioid receptor (Oprm1, Rattus norvegicus, UniProt P33535)
Chain of UniProt Q9ET22 (whole entry, looked up): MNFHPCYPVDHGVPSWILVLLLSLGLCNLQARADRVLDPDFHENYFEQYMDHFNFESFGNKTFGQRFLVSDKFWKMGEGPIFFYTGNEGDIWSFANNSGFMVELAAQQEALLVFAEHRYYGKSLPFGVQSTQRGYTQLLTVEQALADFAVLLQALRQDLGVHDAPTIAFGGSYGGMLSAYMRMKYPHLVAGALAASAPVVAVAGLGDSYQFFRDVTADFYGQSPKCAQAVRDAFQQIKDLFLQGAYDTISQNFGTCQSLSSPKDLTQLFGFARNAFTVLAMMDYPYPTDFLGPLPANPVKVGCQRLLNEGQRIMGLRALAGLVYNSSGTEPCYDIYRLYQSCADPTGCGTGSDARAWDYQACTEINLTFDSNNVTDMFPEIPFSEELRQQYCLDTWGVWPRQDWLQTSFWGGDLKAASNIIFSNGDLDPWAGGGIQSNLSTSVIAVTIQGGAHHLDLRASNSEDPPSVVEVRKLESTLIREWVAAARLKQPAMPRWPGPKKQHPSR
Chain of UniProt Q00987 (whole entry, looked up): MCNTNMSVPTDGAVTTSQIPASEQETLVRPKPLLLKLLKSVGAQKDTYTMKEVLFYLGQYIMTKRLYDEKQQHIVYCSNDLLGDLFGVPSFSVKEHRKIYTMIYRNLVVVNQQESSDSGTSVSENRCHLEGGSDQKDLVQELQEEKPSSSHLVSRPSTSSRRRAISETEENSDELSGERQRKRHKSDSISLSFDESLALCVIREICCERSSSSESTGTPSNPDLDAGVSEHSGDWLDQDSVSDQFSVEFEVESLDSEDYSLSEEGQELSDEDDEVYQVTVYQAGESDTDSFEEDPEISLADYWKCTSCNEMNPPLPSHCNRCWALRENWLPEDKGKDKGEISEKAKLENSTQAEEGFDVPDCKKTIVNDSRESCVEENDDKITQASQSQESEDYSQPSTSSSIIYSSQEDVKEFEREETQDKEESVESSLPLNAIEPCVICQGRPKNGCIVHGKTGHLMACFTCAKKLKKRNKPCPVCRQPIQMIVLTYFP
Chain of UniProt Q9ULW8 (whole entry, looked up): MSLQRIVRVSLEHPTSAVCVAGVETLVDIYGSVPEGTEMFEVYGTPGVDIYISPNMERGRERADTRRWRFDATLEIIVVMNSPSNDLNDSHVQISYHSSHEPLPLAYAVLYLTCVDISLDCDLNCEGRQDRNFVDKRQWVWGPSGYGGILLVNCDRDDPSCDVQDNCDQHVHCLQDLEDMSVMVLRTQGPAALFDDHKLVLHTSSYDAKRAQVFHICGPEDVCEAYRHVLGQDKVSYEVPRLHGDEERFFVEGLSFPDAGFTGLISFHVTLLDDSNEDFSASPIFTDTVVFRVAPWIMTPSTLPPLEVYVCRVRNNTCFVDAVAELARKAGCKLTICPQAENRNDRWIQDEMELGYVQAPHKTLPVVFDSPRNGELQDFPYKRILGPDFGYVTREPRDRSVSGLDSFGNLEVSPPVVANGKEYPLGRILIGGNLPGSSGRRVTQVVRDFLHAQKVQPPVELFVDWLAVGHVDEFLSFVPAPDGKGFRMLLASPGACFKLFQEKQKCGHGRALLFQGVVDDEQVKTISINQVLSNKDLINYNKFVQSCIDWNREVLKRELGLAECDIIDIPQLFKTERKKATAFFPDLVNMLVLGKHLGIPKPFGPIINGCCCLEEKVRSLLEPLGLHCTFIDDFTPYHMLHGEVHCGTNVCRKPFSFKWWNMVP
Chain of UniProt P05771 (whole entry, looked up): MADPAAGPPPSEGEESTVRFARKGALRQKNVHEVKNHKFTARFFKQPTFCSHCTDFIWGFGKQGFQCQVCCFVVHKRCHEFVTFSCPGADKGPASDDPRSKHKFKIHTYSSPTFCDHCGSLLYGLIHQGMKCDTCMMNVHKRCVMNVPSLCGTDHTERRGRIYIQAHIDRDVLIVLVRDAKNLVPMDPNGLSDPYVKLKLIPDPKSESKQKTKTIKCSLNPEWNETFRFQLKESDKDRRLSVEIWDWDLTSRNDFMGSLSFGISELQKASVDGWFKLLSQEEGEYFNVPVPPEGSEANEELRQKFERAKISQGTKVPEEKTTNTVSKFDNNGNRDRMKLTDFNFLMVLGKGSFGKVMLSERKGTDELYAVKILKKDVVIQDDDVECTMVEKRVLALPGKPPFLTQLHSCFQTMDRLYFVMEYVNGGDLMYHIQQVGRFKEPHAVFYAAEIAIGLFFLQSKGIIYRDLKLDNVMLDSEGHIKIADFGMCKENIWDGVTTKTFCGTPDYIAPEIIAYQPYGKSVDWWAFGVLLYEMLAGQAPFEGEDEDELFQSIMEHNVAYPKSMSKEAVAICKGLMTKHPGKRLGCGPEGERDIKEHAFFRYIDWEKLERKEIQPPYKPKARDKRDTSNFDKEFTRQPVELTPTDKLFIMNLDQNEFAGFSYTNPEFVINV
Chain of UniProt P33535 (whole entry, looked up): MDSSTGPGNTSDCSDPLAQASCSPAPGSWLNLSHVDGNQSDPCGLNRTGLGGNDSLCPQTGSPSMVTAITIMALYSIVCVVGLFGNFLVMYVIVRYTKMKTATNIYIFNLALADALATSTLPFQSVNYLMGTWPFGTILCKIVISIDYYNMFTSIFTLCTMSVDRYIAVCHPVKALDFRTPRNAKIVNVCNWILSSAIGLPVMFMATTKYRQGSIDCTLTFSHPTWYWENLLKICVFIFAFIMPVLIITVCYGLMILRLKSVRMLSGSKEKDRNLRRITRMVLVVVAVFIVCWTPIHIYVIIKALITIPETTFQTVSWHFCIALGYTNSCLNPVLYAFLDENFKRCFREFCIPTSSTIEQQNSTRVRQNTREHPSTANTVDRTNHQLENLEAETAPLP
Chain of UniProt Q14145 (whole entry, looked up): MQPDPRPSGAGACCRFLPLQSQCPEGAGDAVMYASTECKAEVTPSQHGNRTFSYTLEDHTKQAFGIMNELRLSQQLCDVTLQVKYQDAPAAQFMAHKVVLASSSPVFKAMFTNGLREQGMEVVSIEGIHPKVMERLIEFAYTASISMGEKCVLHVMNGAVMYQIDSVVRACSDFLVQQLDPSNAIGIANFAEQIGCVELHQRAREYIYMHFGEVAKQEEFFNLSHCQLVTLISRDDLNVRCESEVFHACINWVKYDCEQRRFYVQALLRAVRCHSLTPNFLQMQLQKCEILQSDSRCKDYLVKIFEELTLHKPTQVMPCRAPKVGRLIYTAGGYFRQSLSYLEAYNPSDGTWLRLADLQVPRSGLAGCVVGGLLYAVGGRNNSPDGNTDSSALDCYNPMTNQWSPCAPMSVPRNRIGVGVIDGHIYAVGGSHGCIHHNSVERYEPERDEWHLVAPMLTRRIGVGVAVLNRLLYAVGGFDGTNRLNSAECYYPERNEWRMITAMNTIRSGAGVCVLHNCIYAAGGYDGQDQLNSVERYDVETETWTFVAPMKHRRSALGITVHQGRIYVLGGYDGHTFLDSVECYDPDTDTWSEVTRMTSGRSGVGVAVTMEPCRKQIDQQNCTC
Chain of UniProt P48730 (whole entry, looked up): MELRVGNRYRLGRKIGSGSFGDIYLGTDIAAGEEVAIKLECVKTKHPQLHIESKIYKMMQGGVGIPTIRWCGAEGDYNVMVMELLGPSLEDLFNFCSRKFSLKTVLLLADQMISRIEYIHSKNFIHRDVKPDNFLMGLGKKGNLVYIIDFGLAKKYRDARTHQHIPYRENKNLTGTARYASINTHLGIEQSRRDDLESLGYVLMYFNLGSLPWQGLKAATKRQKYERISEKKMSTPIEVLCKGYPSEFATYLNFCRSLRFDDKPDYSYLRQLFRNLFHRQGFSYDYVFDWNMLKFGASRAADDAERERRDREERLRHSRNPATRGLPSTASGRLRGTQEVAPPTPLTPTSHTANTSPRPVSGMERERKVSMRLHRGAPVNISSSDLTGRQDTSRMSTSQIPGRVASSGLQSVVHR
Chain of UniProt P50395 (whole entry, looked up): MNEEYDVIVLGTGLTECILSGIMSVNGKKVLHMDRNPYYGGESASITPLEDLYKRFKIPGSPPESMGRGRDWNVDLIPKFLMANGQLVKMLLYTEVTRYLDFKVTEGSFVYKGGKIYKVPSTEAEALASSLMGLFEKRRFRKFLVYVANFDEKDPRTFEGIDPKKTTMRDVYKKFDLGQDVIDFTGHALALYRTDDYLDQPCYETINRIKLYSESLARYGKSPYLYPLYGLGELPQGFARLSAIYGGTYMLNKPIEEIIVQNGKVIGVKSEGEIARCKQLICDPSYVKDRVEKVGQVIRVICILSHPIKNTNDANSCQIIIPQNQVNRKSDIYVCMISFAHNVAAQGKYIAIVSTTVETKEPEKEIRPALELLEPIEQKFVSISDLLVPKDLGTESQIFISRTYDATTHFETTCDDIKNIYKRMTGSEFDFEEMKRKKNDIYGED
Chain of UniProt Q96SW2 (whole entry, looked up): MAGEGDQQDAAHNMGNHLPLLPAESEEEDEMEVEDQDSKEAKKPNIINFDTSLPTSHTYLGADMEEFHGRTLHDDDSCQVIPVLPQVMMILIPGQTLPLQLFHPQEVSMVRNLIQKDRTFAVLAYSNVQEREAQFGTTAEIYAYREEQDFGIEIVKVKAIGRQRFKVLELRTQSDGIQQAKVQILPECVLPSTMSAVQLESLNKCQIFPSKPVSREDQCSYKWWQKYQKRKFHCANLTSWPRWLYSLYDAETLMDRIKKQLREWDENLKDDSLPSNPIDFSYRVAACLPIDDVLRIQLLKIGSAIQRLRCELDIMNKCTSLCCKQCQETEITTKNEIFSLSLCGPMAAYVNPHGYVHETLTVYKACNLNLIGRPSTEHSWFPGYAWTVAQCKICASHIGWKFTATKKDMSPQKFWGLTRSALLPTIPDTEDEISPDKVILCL

Compound	tested on	test	test system	conditions	scale	measurement	result
C#CCCCCOc1ccc2c(c1)CCCN2C(=O)CCl	Galactocerebrosidase (GALC, Homo sapiens, UniProt P54803)	mass spectrometry profiling	H460 cell lysate	100 µM over 10 µM, UniProt P54803	relative to: high over low concentration	reactivity ratio	1.39
C[C@H](NCc1ccc(-c2ccc(C(F)(F)F)cc2)cc1)C(N)=O	Fibroblast growth factor receptor 2 (FGFR2, Homo sapiens, UniProt P21802)	cell-free assay, competition with immobilised ligand	–	1 µM	–	inhibition	10%
CCCCC/C=C\C/C=C\C/C=C\C/C=C\CCCC(=O)NCCc1ccc(O)c(O)c1	Transient receptor potential cation channel subfamily V member 1 (Trpv1, Mus musculus, UniProt Q704Y3)	ion current, agonist, whole-cell patch clamp	HEK293	–	relative to: 3 mM 2-APB current	maximal open probability	0.83 ± 0.05
CN(C)CCCSC(=S)N1CCN(C(=O)/C=C/c2coc3ccccc3c2=O)CC1	Nucleoprotein (N, Tomato spotted wilt virus, UniProt P25999, R94A)	binding, microscale thermophoresis	–	1.953 µM	dose series	MST response	842 a.u.
CC[C@H](C)[C@@H]1NC(=O)[C@H](CC(C)C)NC(=O)CNC(=O)[C@H](CCCNC(=N)N)NC(=O)[C@H](Cc2c[nH]c3ccccc23)NC(=O)[C@H](CCSC)NC(=O)[C@H](CO)NC(=O)[C@H](CCC(=O)O)NC(=O)[C@H](Cc2ccccc2)NC(=O)[C@H](CC(=O)O)NC(=O)[C@H]([C@@H](C)O)NC(=O)CNC(=O)[C@H](CCC(=O)O)NC(=O)[C@H]([C@@H](C)O)NC(=O)CNC(=O)[C@H](CC(=O)O)NC1=O	E3 ubiquitin-protein ligase Mdm2 (MDM2, Homo sapiens, UniProt Q00987)	MDM2-ligand binding, inhibitor, AlphaLISA competition	–	200 µM, together with: GST-tagged MDM2 ligand	lower = stronger inhibition	AlphaLISA signal	822 a.u. and 759 a.u. and 851 a.u.
CC(C)(C)C(=O)OCOP(=O)(OCOC(=O)C(C)(C)C)C1CCCN(O)C1=O (stereo not drawn)	ACHN	–	–	–	–	log TGI	-5.1 log M
CC[C@H](C)[C@H](NC(=O)[C@H](CCCNC(=N)N)NC(=O)[C@H](CCCNC(=N)N)NC(=O)[C@H](CC(C)C)NC(=O)[C@H](Cc1ccccc1)NC(=O)CNC(=O)CNC(=O)[C@@H](N)Cc1ccc(O)cc1)C(=O)N[C@@H](CCCNC(=N)N)C(=O)N1CCC[C@H]1C(=O)N[C@@H](CCCCN)C(=O)N[C@@H](CC(C)C)C(=O)N[C@@H](CCCCN)C(=O)O	Probable G-protein coupled receptor 139 (GPR139, Homo sapiens, UniProt Q6DWJ6)	Gαz activation, agonist, BRET	HEK293T/17	40 µM	–	Emax	11.1%
N[C@H](C(=O)N1CCCC1)C1CCN(c2nccc3c(-c4ncc(Cl)cc4Cl)cccc23)CC1	Protein-arginine deiminase type-3 (PADI3, Homo sapiens, UniProt Q9ULW8)	enzyme activity	–	0.01573 µM, together with: Ca2+ 0.25 mM	–	kcat	0.0959 s⁻¹ and 0.103 s⁻¹
CCOC(=O)[C@@H]1Cc2c(cc([N+](=O)[O-])cc2[N+](=O)[O-])[C@H](O)[C@]12C(=O)Nc1ccc(Br)cc12	Casein kinase I isoform delta (CSNK1D, Homo sapiens, UniProt P48730)	binding, competition with immobilised ligand	–	0.1 µM	–	remaining binding	61%
CC[C@H](C)[C@H](NC(=O)[C@H](CO)NC(=O)[C@H](Cc1ccc(O)cc1)NC(=O)[C@H](Cc1ccc(O)cc1)NC(=O)[C@H](CC(N)=O)NC(=O)CNC(=O)[C@H](CO)NC(=O)[C@H](Cc1ccc(O)cc1)NC(=O)[C@H](CO)NC(=O)[C@H](CO)NC(=O)[C@H](CC(N)=O)NC(=O)COCCOCCNC(=O)CN1CCN(CC(=O)O)CCN(CC(=O)O)CCN(CC(=O)O)CC1)C(=O)N[C@@H](CC(C)C)C(N)=O [copper-64 labelled]	–	dynamic PET	mouse, tamoxifen-induced PDAC, tumor	intravenous, 0.1 µg/mouse, 9.5 min	–	tumour uptake	11.2 %ID/mL
COc1ccccc1-c1n[nH]c2nc(N[C@H]3CC[C@H](NS(=O)(=O)CC(C)C)CC3)ncc12	cyclin 9 (Leishmania donovani, UniProt A0A2D1QVA3)	bead pull-down competition	Leishmania donovani extract	10 µM	relative to: vehicle	remaining binding	6.33%
O=C1NC2(CC2)COc2ncc(F)cc2[C@H]2COCCN2c2ccn3ncc1c3n2	–	–	Sprague-Dawley rat, male, serum	oral, 5 mg/kg/day, end of recovery, 4-week subacute toxicity	–	serum triglycerides	0.37 ± 0.08 mmol/L
COCC1CCCCN1C(=O)n1cc(C(O)(c2ccccc2)c2ccccc2)nn1 (stereo not drawn)	Dipeptidyl peptidase 2 (Dpp7, Mus musculus, UniProt Q9ET22)	probe labelling, inhibitor, competitive ABPP-SILAC, refers to: Dpp7	mouse T cells	concentration not given, 4 h, single peptide	relative to: treated over DMSO cells, lower = stronger inhibition	SILAC activity ratio	1.23 and 1.4 and 1.28 and 1.35
CS(C)(=O)=Nc1ccc(-c2ccc(-c3nc4cc(O[C@@H]5CO[C@H]6[C@@H]5OC[C@H]6O)[nH]c4cc3F)cc2)cc1	Serine/threonine-protein kinase Nek7 (NEK7, Homo sapiens, UniProt Q8TDX7)	enzyme activity, inhibitor	–	10 µM	–	inhibition	-3%
Cc1cc(C)cc(COc2cc3c(cc2OCc2cc(C)cc(C)c2)C2CC(O)(Cc4cn(CCCCCCNC(=O)CNc5cccc6c5C(=O)N(C5CCC(=O)NC5=O)C6=O)nn4)CC(C)N2CC3)c1 (racemic)	Rab GDP dissociation inhibitor beta (Homo sapiens, UniProt P50395)	degrader, Western blot	PC-3	2 µM, 24 h	–	degradation	6%
O=C1NC(=O)c2c1c1cc(F)c[n+]3c1c1c2c2cc(O)ccc2[n]1[Ru-4]312([N]=C=S)[S+]3CC[S+]1CC[S+]2CC3 (stereo not drawn)	Tyrosine-protein kinase BTK (BTK, Homo sapiens, UniProt Q06187)	enzyme activity	–	100 nM, human enzyme, together with: 10 µM ATP	relative to: untreated	remaining activity	78%
COc1ccc(CC(=O)N[C@H]2CCSC2=O)cc1	sdiA	–	–	–	–	Emax	109%
CC(C)[C@H]1NC(=O)C[C@H]2/C=C/CCSSC[C@@H](NC1=O)C(=O)N[C@H](Cc1cccc3ccccc13)C(=O)NCC(=O)O2	cGMP-dependent protein kinase 2 (PRKG2, Homo sapiens, UniProt Q13237)	enzyme activity, inhibitor	–	10 µM	–	inhibition	-0.369%
[CH3][Ti+2][O]C(=O)c1ccc([S][Au][PH](c2ccccc2)(c2ccccc2)c2ccccc2)cc1.c1cc[cH-]c1.c1cc[cH-]c1	Protein kinase C beta type, isoform beta-I (PRKCB, Homo sapiens, UniProt P05771)	kinase activity	–	1 µM, together with: ATP 10 µM	–	remaining activity	92.9% and 93.4%
CCCC(=O)CC(=O)N[C@H]1CCOC1=O	lasR	reporter gene, agonist	Escherichia coli JLD271	10 µM, pSC11 and pJN105L plasmids	relative to: OdDHL at same concentration	agonist activity	-4%

Compound	tested on	test	test system	conditions	scale	measurement	result
CN1CCCN(C(=O)c2ccc(S(=O)(=O)F)cc2)c2ccccc21	Uncharacterized hydrolase SAUSA300_2518	enzyme activity, inhibitor, fluorogenic substrate	–	5 µM	–	remaining activity	112% and 114%
Cc1ccc(NC(=O)CCc2cccc(NC3=CC(=O)N(C4CCC(=O)NC4=O)C3=O)c2)cc1Cl (stereo not drawn)	CRBN/Zinc finger protein Aiolos (Homo sapiens, UniProt Q96SW2+Q9UKT9)	degrader, quantitative proteomics, refers to: protein abundance	human regulatory T cells	1 µM, 4 h	relative to: DMSO	log2 fold change	-2.53
CC(O)C1CN(C(Cc2ccc3ccccc3c2)CN2CCCC2CN2CCNCC2CO)CCN1CCCC1CCCC1 (stereo not drawn)	Oprm1	radioligand binding	rat brain membranes	500 nM, pH 7.5, 25 °C, together with: 0.87 nM [3H]DAMGO	–	remaining binding	103 ± 8.82%
Cc1cc(C(=O)Nc2nc3cccc(C)c3n2[C@H]2CCCCN(C(=O)/C=C/CN(C)C)C2)ccn1	Trypanosoma brucei brucei	–	2T1 CLK1 C215S overexpressing	0.00343 µM, 72 h	–	survival	107% and 104% and 103% and 106% and 102% and 101%
COC(=O)[C@@H](NC(=O)c1nn(Cc2ccc(F)cc2)c2cc(OCCCCNC(=N)N)ccc12)C(C)(C)C	Cannabinoid receptor 1, with Gi2 (CNR1, Homo sapiens, UniProt P21554)	GTP turnover, agonist, refers to: Gi2 Gα subtype	–	–	–	maximal efficacy	114%
O=C(Nc1ccncc1)c1ccccc1OS(=O)(=O)F	Uncharacterized hydrolase SAUSA300_2518	enzyme activity, inhibitor, fluorogenic substrate	–	0.01 µM	–	remaining activity	94.6% and 91.4% and 94.4%
O=C(CC(=O)N[C@H]1CCOC1=O)Cc1ccccc1	lasR	reporter gene, antagonist	–	–	relative to: IC50 PAO-JP2 over E. coli JLD271	potency ratio	26
CN(/N=C/c1ccccc1C(=O)O)c1nc(-c2ccccc2Cl)cs1	Tyrosine-protein kinase JAK2 (JAK2, Homo sapiens, UniProt O60674)	kinase activity	–	1 µM	–	inhibition	0.1%
CC(C)C[C@@H]1NC(=O)[C@H](C(C)C)NC(=O)[C@H](CCC(=O)O)NC(=O)CNC(=O)[C@H]([C@@H](C)O)NC(=O)[C@H](CCC(=O)O)NC(=O)[C@H](CCC(=O)O)NC(=O)[C@H](CC(=O)O)NC(=O)[C@H](C(C)C)NC(=O)[C@H]([C@@H](C)O)NC(=O)CNC(=O)[C@H](CC(=O)O)NC(=O)[C@@H]2CCCN2C1=O	Kelch-like ECH-associated protein 1 (KEAP1, Homo sapiens, UniProt Q14145)	Keap1-Nrf2 binding, inhibitor, competitive FP	–	0.0977 µM, 30 min, together with: Nrf2 peptide probe	lower = stronger inhibition	fluorescence polarization	0.773 a.u. and 0.719 a.u.
CN(C)[C@H]1C[C@@]23CC[C@@]4(O2)C(=CC[C@]2(C)[C@@H](c5ccc6ccncc6c5)CC[C@H]24)C=C3[C@@H](O)[C@@H]1O	Phosphatidylinositol 4-kinase beta (PI4KB, Homo sapiens, UniProt Q9UBF8)	ATP probe labelling, inhibitor, KiNativ profiling	–	0.1 µM	–	inhibition	-0.8%
CC(C)CC(O)(CC(C)C)c1cn(C(=O)N2CCCC2)nn1	GPI inositol-deacylase (Pgap1, Mus musculus, UniProt Q3UUQ7)	probe labelling, inhibitor, competitive ABPP-SILAC, refers to: Pgap1	mouse T cells	concentration not given, 4 h, in situ, protein level	relative to: treated over DMSO, lower = more inhibition	SILAC ratio	1.27
OC[C@H]1CNCCN1C[C@@H]1CCCN1C[C@@H](Cc1ccc2ccccc2c1)N1CCN(CCCC2CCCC2)[C@H](Cc2ccc(O)cc2)C1	Oprm1	radioligand binding	rat brain membranes	500 nM, pH 7.5, 25 °C, together with: 0.87 nM [3H]DAMGO	–	remaining binding	97.7 ± 5.81%
O=C(CCc1ccc(C(F)(F)F)cc1)N[C@H]1CCOC1=O	lasR	reporter gene, agonist	Pseudomonas aeruginosa PAO-JP2	100 µM, plasI-LVAgfp reporter	relative to: OdDHL at same concentration	agonist activity	36%
Nc1ccc(/C=C/C(=O)N2CCc3c(oc4c(-c5ccc(F)cc5)cc(-c5ccc(C(=O)N6CCC(F)(F)CC6)cn5)cc34)C2)cn1	NUAK family SNF1-like kinase 2 (NUAK2, Homo sapiens, UniProt Q9H093)	binding, competition with immobilised ligand	–	1 µM	–	remaining binding	92%
CC#CC(=O)NC[C@H](NC(=O)[C@H](CC1CCCCC1)NC(=O)[C@H](CCC(N)=O)NC(C)=O)C(=O)N[C@@H](CC(C)C)C(=O)N[C@@H](Cc1ccccc1)C(=O)O	Beta sliding clamp (Escherichia coli, UniProt P0A988)	binding, isothermal titration calorimetry	–	22 °C	–	-TΔS	2.7 kcal/mol
O=C(CCc1ccc(Br)cc1)N[C@H]1CCOC1=O	lasR	reporter gene, agonist	Escherichia coli JLD271	10 µM, pSC11 and pJN105L plasmids	relative to: OdDHL at same concentration	agonist activity	25%
CCN(CC)CCO.O=C(O)C(Cl)Cl	Eleusine indica	–	–	15 mg/mL, 21 days, pre-emergence, greenhouse	–	herbicidal inhibition	0%
CCNC(=S)NN=Cc1c2ccccc2cc2ccccc12.Cc1ccc(C(C)C)cc1.[Cl-].[Cl-].[Ru+2]	Albumin (ALB, Homo sapiens, UniProt P02768)	binding, van't Hoff, Scatchard	–	concentration not given	–	enthalpy change (ΔH°)	10.3 kcal/mol
O=C(Cc1cccc([N+](=O)[O-])c1)N[C@H]1CCOC1=O	sdiA	–	–	–	–	Emax	118%
